Results collected from several papers.
Protocols differ between the studies behind these lines. Numbers after ± are the reported error.

SMILES	test	system	setting	measurement	value
Cc1cc(C)c(NC(=O)CN(CC(=O)[O-])CC(=O)[O-])c(C)c1Br.Cc1cc(C)c(NC(=O)CN(CC(=O)[O-])CC(=O)[O-])c(C)c1Br.[99Tc+4]	ultrafiltration	human, blood	dose not given	unbound fraction	0.03
O=[N+]([O-])c1cn2c(n1)OC[C@@H](OCc1ccc(OC(F)(F)F)cc1)C2	–	human	–	unbound fraction	0.07
CCn1c(=O)c(-c2cc(NC(=O)Nc3ccccc3)c(F)cc2Br)cc2cnc(NC)cc21	ultracentrifugation	healthy human, matched to severe impairment, plasma	oral, 50 mg single dose	unbound fraction at Cmax	0.354%
C#C[C@]1(O)CC[C@H]2[C@@H]3CCC4=CC(=NO)CC[C@@H]4[C@H]3CC[C@@]21CC (mixture of isomers)	–	human, plasma	–	unbound fraction	0.0104
Cn1c(Cn2ccc(C(F)(F)F)c(Oc3cc(Cl)cc(C#N)c3)c2=O)n[nH]c1=O	–	human, plasma	120 mg	unbound Cmax	651 nM
C[C@H]1CN(C(=O)CC#N)[C@]12CCN(c1ncnc3[nH]ccc13)C2	–	human	–	unbound fraction	~0.75
CC(C)N(CCCCOCC(=O)NS(C)(=O)=O)c1cnc(-c2ccccc2)c(-c2ccccc2)n1	–	human, plasma	1.6 mg	unbound Cmax	5.12 nM
CNC(=O)c1ccc(-c2cnc3ncc(Cc4ccc5ncccc5c4)n3n2)cc1F	–	human mild hepatic impairment	oral, 200 mg single dose, adjusted geometric mean	unbound AUC(0-t)	146 ng·h/mL
Cn1cncc1[C@@](N)(c1ccc(Cl)cc1)c1ccc2c(c1)c(-c1cccc(Cl)c1)cc(=O)n2C	–	healthy human, plasma	–	unbound fraction	0.0078
N#Cc1ccc(C(c2ccc(C#N)cc2)n2cncn2)cc1	–	human patients, plasma	oral, 2.5 mg daily	unbound Cmax at steady state	140 ± 20 nM
NC[C@@]1(CC(=O)O)[C@@H]2CC[C@H]3C[C@@H]2[C@@H]1C3	–	human, severe renal impairment, plasma	dose not given, geometric mean	unbound apparent volume of distribution	54.3 L
CC(C)OC(=O)[C@H](C)N[P@](=O)(OC[C@H]1O[C@@H](n2ccc(=O)[nH]c2=O)[C@](C)(F)[C@@H]1O)Oc1ccccc1	–	human, plasma	400 mg	unbound Cmax	445 nM
CC#CC(=O)N1CCC[C@H]1c1nc(-c2ccc(C(=O)Nc3ccccn3)cc2)c2c(N)nccn12	noncompartmental analysis	human, control subjects, plasma	oral, 50 mg, geometric mean	unbound Cmax	1.2 ng/mL
CCO[C@H]1CCN(Cc2c(OC)cc(C)c3[nH]ccc23)[C@H](c2ccc(C(=O)O)cc2)C1	–	human mild hepatic impairment, plasma	oral, 200 mg single dose, median	unbound Tmax	1.88 h
CO[C@H]1C[C@@H]2CC[C@@H](C)[C@@](O)(O2)C(=O)C(=O)N2CCCC[C@H]2C(=O)O[C@H]([C@H](C)C[C@@H]2CC[C@@H](OC(=O)NCCOCCOCCOCCOCCOCCOCCOCCOCCC(=O)N3CCc4cc(Cn5nc(-c6ccc7oc(N)nc7c6)c6c(N)ncnc65)ccc4C3)[C@H](OC)C2)C[C@@H](O)[C@H](C)/C=C(\C)[C@@H](O)[C@@H](OC)C(=O)[C@H](C)C[C@H](C)/C=C/C=C/C=C/1C	–	human, plasma	intravenous, 10 mg, Cycle 1 Day 15, 1 h infusion	unbound Cmax	16.2 nM
O=[N+]([O-])c1cn2c(n1)OC[C@@H](OCc1ccc(N3CCOCC3)nc1)C2	–	human	–	unbound fraction	> 0.7
CCn1c(=O)c(-c2cc(NC(=O)Nc3ccccc3)c(F)cc2Br)cc2cnc(N)cc21	ultracentrifugation	human, hepatic impairment severe or matched healthy, plasma	oral, 50 mg single dose	unbound fraction at Cmax	0.167%

Some of these lines once more:
SMILES	test	system	setting	measurement	value
C[C@H]1CN(C(=O)CC#N)[C@]12CCN(c1ncnc3[nH]ccc13)C2	–	human	–	unbound fraction	~0.75
CC(C)N(CCCCOCC(=O)NS(C)(=O)=O)c1cnc(-c2ccccc2)c(-c2ccccc2)n1	–	human, plasma	1.6 mg	unbound Cmax	5.12 nM
